{"data": "Measurements collected from several papers", "note": "Each numbered part is a random draw from the data of one study; scales do not carry over between parts.", "sequence of UniProt P08588 (whole entry, looked up)": "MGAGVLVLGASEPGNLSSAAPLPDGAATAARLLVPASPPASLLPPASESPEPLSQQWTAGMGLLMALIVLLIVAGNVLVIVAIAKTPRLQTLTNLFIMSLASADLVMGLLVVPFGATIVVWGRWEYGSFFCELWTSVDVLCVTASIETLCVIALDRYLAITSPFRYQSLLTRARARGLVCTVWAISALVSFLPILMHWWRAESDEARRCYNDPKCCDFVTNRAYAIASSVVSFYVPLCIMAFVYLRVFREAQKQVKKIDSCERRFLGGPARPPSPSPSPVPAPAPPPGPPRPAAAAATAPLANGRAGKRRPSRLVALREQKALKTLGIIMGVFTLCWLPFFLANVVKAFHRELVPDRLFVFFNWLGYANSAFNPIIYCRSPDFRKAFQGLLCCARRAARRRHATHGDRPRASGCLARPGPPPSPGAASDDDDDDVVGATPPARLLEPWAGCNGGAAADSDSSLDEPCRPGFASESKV", "sequence of UniProt P50406 (whole entry, looked up)": "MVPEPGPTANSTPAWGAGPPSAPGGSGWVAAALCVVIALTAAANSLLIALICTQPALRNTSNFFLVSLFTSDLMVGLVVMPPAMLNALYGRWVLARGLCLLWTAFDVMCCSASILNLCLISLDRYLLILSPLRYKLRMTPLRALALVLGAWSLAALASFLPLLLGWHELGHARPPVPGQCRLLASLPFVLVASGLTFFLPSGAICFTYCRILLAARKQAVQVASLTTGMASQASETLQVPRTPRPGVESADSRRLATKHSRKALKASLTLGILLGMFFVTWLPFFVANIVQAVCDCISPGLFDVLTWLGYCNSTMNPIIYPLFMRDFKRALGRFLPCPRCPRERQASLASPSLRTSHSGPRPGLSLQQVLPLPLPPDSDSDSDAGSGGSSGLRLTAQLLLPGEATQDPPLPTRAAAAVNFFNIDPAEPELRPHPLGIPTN", "sequence of UniProt Q9Y5N1 (whole entry, looked up)": "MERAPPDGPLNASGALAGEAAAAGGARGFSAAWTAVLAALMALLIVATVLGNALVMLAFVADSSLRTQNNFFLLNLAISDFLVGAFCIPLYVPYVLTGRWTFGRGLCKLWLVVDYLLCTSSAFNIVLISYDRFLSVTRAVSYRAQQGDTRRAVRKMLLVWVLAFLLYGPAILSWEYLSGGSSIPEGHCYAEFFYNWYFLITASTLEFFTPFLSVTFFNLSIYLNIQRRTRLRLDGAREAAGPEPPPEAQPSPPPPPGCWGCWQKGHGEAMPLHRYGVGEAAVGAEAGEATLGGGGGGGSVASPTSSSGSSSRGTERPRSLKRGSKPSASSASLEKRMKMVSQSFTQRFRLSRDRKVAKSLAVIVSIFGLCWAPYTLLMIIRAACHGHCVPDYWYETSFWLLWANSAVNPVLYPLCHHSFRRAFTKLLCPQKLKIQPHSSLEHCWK", "sequence of UniProt P35462 (whole entry, looked up)": "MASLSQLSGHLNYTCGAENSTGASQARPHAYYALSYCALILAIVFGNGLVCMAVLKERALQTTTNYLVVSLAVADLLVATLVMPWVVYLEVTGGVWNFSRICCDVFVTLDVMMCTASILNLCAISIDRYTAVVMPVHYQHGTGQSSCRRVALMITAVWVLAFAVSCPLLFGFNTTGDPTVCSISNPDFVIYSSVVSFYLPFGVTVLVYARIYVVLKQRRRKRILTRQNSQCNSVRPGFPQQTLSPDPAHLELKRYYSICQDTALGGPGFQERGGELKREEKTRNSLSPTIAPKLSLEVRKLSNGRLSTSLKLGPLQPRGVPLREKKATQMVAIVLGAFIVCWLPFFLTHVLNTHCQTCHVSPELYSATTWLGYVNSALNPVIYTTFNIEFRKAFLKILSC", "sequence of UniProt P14416 (whole entry, looked up)": "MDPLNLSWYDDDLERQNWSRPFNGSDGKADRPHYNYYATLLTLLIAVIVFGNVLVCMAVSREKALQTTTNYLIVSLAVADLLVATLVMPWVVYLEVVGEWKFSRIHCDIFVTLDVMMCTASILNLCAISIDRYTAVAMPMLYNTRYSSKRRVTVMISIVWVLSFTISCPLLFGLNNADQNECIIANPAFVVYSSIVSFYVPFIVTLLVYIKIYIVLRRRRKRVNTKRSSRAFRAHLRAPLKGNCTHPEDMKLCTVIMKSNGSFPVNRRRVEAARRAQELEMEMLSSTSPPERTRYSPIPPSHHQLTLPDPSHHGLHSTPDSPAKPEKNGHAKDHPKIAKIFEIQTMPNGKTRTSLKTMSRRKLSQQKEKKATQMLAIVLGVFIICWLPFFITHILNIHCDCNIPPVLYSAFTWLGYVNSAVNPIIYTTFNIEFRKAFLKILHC", "sequence of UniProt P21917 (whole entry, looked up)": "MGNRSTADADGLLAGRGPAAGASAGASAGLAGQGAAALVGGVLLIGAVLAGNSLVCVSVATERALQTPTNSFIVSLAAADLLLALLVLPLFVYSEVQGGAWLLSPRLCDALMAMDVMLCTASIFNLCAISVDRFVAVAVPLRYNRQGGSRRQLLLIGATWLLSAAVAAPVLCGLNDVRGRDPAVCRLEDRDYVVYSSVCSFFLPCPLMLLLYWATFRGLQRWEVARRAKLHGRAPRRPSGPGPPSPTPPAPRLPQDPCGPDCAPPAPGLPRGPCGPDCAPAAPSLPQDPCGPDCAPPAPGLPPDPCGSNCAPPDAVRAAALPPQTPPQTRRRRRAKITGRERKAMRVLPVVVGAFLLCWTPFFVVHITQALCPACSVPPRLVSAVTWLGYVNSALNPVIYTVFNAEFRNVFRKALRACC", "sequence of UniProt P35348 (whole entry, looked up)": "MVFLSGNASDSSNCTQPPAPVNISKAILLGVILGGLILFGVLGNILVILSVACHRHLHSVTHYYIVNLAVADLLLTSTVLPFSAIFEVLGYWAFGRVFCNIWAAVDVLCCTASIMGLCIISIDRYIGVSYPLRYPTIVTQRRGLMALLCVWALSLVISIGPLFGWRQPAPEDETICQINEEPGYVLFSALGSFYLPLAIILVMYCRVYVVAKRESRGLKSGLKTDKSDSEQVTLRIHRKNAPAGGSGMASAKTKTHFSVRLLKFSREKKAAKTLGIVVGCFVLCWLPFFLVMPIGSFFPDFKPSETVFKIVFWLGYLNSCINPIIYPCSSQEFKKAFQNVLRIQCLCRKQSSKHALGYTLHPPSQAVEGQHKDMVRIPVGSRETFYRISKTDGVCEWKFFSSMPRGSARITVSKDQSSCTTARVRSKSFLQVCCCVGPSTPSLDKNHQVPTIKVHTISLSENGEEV", "sequence of UniProt P08912 (whole entry, looked up)": "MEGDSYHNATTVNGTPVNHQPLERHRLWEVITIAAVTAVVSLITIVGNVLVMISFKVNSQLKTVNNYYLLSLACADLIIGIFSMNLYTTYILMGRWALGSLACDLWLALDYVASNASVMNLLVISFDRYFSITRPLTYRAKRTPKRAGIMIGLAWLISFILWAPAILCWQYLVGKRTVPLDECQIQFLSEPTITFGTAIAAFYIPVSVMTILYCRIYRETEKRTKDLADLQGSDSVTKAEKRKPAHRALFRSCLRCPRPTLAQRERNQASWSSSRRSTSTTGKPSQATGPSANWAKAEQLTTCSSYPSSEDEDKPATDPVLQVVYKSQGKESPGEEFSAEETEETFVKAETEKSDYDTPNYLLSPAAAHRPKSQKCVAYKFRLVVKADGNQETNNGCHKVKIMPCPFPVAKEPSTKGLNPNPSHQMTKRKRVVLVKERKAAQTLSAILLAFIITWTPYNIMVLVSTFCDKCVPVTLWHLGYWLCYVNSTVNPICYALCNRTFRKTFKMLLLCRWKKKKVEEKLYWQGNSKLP", "sequence of UniProt P41595 (whole entry, looked up)": "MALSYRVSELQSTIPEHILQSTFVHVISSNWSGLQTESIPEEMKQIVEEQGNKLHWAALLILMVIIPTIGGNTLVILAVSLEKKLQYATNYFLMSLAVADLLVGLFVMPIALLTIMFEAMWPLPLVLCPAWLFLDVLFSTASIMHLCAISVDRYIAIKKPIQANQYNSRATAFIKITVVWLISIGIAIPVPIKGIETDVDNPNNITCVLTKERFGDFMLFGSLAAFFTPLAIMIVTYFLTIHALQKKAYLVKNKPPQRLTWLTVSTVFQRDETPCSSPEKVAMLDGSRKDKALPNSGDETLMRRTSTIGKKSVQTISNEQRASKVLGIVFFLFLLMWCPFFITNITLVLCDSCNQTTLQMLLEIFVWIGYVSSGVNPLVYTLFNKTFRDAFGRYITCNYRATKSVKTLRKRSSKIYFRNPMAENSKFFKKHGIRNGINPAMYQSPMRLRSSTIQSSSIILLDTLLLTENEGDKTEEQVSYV", "sequence of UniProt P07550 (whole entry, looked up)": "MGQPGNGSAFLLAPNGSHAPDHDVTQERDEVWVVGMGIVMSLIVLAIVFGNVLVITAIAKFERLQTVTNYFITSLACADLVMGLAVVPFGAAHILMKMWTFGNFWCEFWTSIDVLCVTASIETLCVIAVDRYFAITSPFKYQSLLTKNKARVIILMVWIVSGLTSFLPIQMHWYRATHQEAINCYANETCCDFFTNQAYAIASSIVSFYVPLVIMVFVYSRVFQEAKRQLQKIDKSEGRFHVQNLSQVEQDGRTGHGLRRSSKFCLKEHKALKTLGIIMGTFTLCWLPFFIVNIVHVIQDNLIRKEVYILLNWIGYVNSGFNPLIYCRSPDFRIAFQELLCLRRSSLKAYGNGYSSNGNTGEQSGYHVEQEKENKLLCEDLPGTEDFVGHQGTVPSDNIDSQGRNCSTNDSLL", "sequence of UniProt Q99720 (whole entry, looked up)": "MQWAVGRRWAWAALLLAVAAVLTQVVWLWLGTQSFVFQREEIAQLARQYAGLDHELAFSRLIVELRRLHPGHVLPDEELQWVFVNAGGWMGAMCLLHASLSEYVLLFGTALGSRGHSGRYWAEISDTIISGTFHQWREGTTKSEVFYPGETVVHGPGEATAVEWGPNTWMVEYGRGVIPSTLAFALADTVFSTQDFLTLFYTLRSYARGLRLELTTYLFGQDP", "sequence of UniProt Q5BJF2 (whole entry, looked up)": "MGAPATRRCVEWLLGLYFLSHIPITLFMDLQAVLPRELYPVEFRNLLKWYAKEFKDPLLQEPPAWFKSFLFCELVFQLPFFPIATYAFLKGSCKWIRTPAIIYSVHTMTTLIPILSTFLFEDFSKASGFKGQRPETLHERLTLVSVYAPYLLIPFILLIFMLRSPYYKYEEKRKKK"}
{"data": "Block 1", "SMILES": "COc1cc(C(=O)N2CCC(N3CCN(C)CC3)CC2)ccc1Nc1ncc2c(n1)N(C)c1ccccc1C(=O)N2C"}
{"target": "NIM1 (mouse)", "assay": "probe labelling, KiNativ ATP probe", "test system": "mouse brain lysate", "conditions": "0.1 µM, LYS1 labelled site", "inhibition [%]": 9.9}
{"target": "mouse PYK2", "assay": "probe labelling, KiNativ ATP probe", "test system": "mouse brain lysate", "conditions": "1 µM", "inhibition [%]": -4.6}
{"target": "mouse CaMK2γ", "assay": "probe labelling, KiNativ ADP probe", "test system": "mouse brain lysate", "conditions": "1 µM, LYS1 site TSTQEYAAkIINTK", "inhibition [%]": 13}
{"target": "mouse PFTAIRE1", "assay": "probe labelling, KiNativ ATP probe", "test system": "mouse brain lysate", "conditions": "1 µM, LYS1 site LVALkVIR", "inhibition [%]": -4.4}
{"target": "SLK (human)", "assay": "probe labelling, KiNativ, refers to: Lys1 site peptide", "test system": "PBMC lysate (human)", "conditions": "1 µM, added: ATP acyl-phosphate probe", "inhibition [%]": -1.6}
{"target": "MAP2K1 and MAP2K2 (mouse)", "assay": "probe labelling, KiNativ, refers to: DVkPSNILVNSR peptide, LYS2 site", "test system": "brain tissue lysate (mouse)", "conditions": "1 µM, added: ADP acyl-phosphate probe", "inhibition [%]": 5.6}
{"target": "NDR2 (mouse)", "assay": "probe labelling, KiNativ ADP probe", "test system": "mouse brain lysate", "conditions": "1 µM, LYS1 labelled site", "inhibition [%]": -10.4}
{"target": "CaMK2d (mouse)", "assay": "probe labelling, KiNativ, refers to: Lys1 site peptide", "test system": "brain tissue lysate (mouse)", "conditions": "0.1 µM, added: ATP acyl-phosphate probe", "inhibition [%]": -3.8}
{"target": "PIK3CD human", "assay": "KiNativ profiling", "test system": "human PBMC", "conditions": "0.1 µM, ATP site, added: ATP acyl phosphate probe", "inhibition [%]": 10.3}
{"target": "NDR1 (mouse)", "assay": "probe labelling, KiNativ, refers to: DTGHVYAMkILR peptide, LYS1 site", "test system": "brain tissue lysate (mouse)", "conditions": "1 µM, added: ATP acyl-phosphate probe", "inhibition [%]": -0.9}
{"target": "PCTAIRE1 (mouse)", "assay": "probe labelling, KiNativ ATP probe", "test system": "mouse brain lysate", "conditions": "1 µM, LYS1 labelled site", "inhibition [%]": 17.7}
{"data": "Block 2", "target": "Bromodomain-containing protein 4, BD1 (BRD4, Homo sapiens, UniProt O60885)", "observed": "acetyl-histone H4 peptide binding", "method": "AlphaScreen displacement", "concentration": "50 µM"}
{"SMILES": "COc1cc(C=C2SC(=O)NC2=O)c(Br)cc1O", "inhibition": "56.2%"}
{"SMILES": "COC(=O)C=Cc1cc(O)ccc1O", "inhibition": "5.05%"}
{"SMILES": "COc1ccc(-c2nnc3ccc(SCC(=O)N4CCOCC4)nn23)cc1OC", "inhibition": "8.7%"}
{"SMILES": "Cc1[nH]nc(-c2ccc(O)c(C)c2O)c1Oc1ccc(Br)cc1", "inhibition": "34.1%"}
{"SMILES": "C[C@@H](N)[C@H]1CC[C@H](C(=O)Nc2ccncc2)CC1.Cl.Cl", "inhibition": "0.7%"}
{"SMILES": "C=C(C)Cn1c(SCCC(=O)O)nc2c1c(=O)[nH]c(=O)n2C", "inhibition": "-1.35%"}
{"SMILES": "N#CC(=Cc1ccccn1)c1nc2ccccc2s1", "inhibition": "-7.55%"}
{"SMILES": "O=C(NC1CCCC1)c1n[nH]c2ccccc12", "inhibition": "9.38%"}
{"SMILES": "O=C(Nc1cccnc1)c1n[nH]c2ccccc12", "inhibition": "10.1%"}
{"SMILES": "O=C(NCc1cccnc1)c1n[nH]c2ccccc12", "inhibition": "-4.55%"}
{"SMILES": "COc1ccc(COc2ccc(Cc3cnc(N)nc3N)cc2OC)cc1", "inhibition": "24.7%"}
{"SMILES": "Clc1ccc(-c2nnc3ccc(SCc4cccnc4)nn23)cc1", "inhibition": "9.9%"}
{"SMILES": "Fc1cccc(-c2nnc3ccc(SCc4ccccn4)nn23)c1", "inhibition": "24.4%"}
{"SMILES": "CN1CCN(c2nccn3c(-c4ccoc4)cnc23)CC1", "inhibition": "17.4%"}
{"SMILES": "Cn1cccc1C=C(C#N)c1nc2ccccc2s1", "inhibition": "63.2%"}
{"SMILES": "COc1ccc(-c2[nH]c3ncccc3c2CN2CCN(C)CC2)cc1", "inhibition": "27.2%"}
{"data": "Block 3", "SMILES": "O=C(O)[C@@H]1[C@@H](Cn2nnc3ccccc3c2=O)CC[C@H]1C(=O)c1ccc(OCCC2CCOCC2)cc1", "observed": "binding", "method": "radioligand binding", "concentration": "10 µM"}
{"target": "DRD2 (Homo sapiens, UniProt P14416)", "inhibition [%]": -5.06}
{"target": "ADRB1 (Homo sapiens, UniProt P08588)", "inhibition [%]": -14.4}
{"target": "TMEM97 (Homo sapiens, UniProt Q5BJF2)", "inhibition [%]": 39.3}
{"target": "HTR2B (Homo sapiens, UniProt P41595)", "inhibition [%]": 36.2}
{"target": "ADRA1A (Homo sapiens, UniProt P35348)", "inhibition [%]": -13.2}
{"target": "SIGMAR1 (Homo sapiens, UniProt Q99720)", "inhibition [%]": 29.3}
{"target": "DRD3 (Homo sapiens, UniProt P35462)", "inhibition [%]": -4.94}
{"target": "ADRA2A (Homo sapiens, UniProt P08913)", "inhibition [%]": 5.09}
{"target": "DRD4 (Homo sapiens, UniProt P21917)", "inhibition [%]": 21.9}
{"target": "CHRM5 (Homo sapiens, UniProt P08912)", "inhibition [%]": 1.82}
{"target": "ADRB2 (Homo sapiens, UniProt P07550)", "inhibition [%]": 24.4}
{"target": "HRH3 (Homo sapiens, UniProt Q9Y5N1)", "inhibition [%]": 4.06}
{"target": "HTR6 (Homo sapiens, UniProt P50406)", "inhibition [%]": 26.9}
{"data": "Block 4", "target": "Beta-1 adrenergic receptor (ADRB1, Homo sapiens, UniProt P08588)", "action": "agonist"}
{"SMILES": "Nc1nc(N)c2nc(-c3cccc(O)c3)c(-c3cccc(O)c3)nc2n1", "EC50": "≥ 100 µM"}
{"SMILES": "Cc1ccc(F)c(Cn2cnc3c(cnn3C(C)(C)C)c2=O)c1Cl", "EC50": "≥ 100 µM"}
{"SMILES": "COc1ccc(CC(=O)Nc2ccc([C@@H](O)[C@H]3COCC(=O)N3Cc3ccccc3OC)cc2)cc1", "EC50": "≥ 100 µM"}
{"SMILES": "CCOC(=O)N1CCN(Cc2cccc(OCC(O)CN3CCOCC3)c2)CC1 (centres unmarked)", "EC50": "≥ 100 µM"}
{"SMILES": "O=C(c1cc(-c2ccc(F)cc2)nc2ccccc12)N1CCCC1c1nc(C2CCOCC2)no1 (centres unmarked)", "EC50": "≥ 100 µM"}
{"SMILES": "COc1ccccc1N1CCN(CC(=O)NC2CCN(C3CC3)CC2)CC1", "EC50": "≥ 100 µM"}
{"SMILES": "O=C(Nc1cnc2c(c1)COCC2)c1ccc2ccccc2n1", "EC50": "≥ 100 µM"}
{"SMILES": "CCCC(NCC(O)COc1ccc(-c2ccccc2)cc1)c1ccccc1 (centres unmarked)", "EC50": "≥ 100 µM"}
{"SMILES": "COc1ccccc1N1CCN([S+](=O)([O-])c2ccc(OC(F)(F)F)cc2)CC1", "EC50": "≥ 100 µM"}
{"SMILES": "COc1cc(-c2cc(-c3cccs3)nc3c(C)noc23)ccn1", "EC50": "≥ 100 µM"}
{"SMILES": "C[C@H](NCCc1ccc(O)cc1)[C@H](O)c1ccc(O)cc1", "EC50": "0.105 µM"}
{"SMILES": "O=C(Nc1ccc([C@@H](O)[C@H]2COCC(=O)N2CCCc2ccccc2)cc1)c1ccco1", "EC50": "≥ 100 µM"}
{"SMILES": "O=C(c1cc2ccccc2o1)N1CCN(c2cccc(Cl)c2)CC1", "EC50": "≥ 100 µM"}
{"SMILES": "O=c1cc(-c2ccccn2)oc2c(-c3cn[nH]c3)nccc12", "EC50": "≥ 100 µM"}
{"SMILES": "COCCN1CCNc2nc(CNCC(C)(C)CO)n(Cc3ccccc3)c2C1=O", "EC50": "≥ 100 µM"}
{"SMILES": "COc1cc2oc(=O)ccc2c(OC)c1C[C@@H](O)C(C)(C)O", "EC50": "≥ 100 µM"}
{"note": "A few entries again (block 3):"}
{"target": "CHRM5 (Homo sapiens, UniProt P08912)", "inhibition [%]": 1.82}
{"target": "SIGMAR1 (Homo sapiens, UniProt Q99720)", "inhibition [%]": 29.3}
{"target": "HTR6 (Homo sapiens, UniProt P50406)", "inhibition [%]": 26.9}
